Measured values gathered from unrelated publications.
Each line is one published result; not all experiments were run side by side. “And” joins repeats or separate records; there may be more than shown. Numbers after ± are the reported error.

For [2H]C([2H])([18F])[C@]([2H])(N)C(=O)O, the tracer uptake was 10.8 %ID/g (U-87 MG tumour model; host not given, bone; 110 min, tumour-bearing).
Cc1ccc(N2CCN(C)CC2)cc1C(=O)N[C@H](C)c1cc(-c2cnn(C)c2)nc2ccccc12 gave a viability of 95.6% (African green monkey cells; 7.812 µM).
CN(C)CCCNC(=O)[C@@H]1NC(=O)[C@@H]2Cc3ccc(cc3)Oc3cc4cc(c3O)-c3ccc5c(c[nH]c5c3)C[C@@H](NC(=O)C(NC(=O)CCCCCN)c3ccc(O)cc3)C(=O)N[C@H](c3ccc(O)cc3)C(=O)N[C@H]4C(=O)N[C@@H](C(=O)N2C)c2ccc(cc2)Oc2cc1ccc2O (stereo partly drawn) has a hemolysis of 0% (human red blood cells; PBS; 64 µg/mL, 1 h, pH 7.4, 37 °C).
Cc1nc2cccc(OCC(C)(C)C(=O)NC(C)C)c2c(N)c1C(=O)[O-].[Na+] gave a revertant colonies of 39 ± 2 colonies/plate (Escherichia coli; reverse mutation, preincubation; WP2 uvrA; 0.32 mg/plate, with rat liver S9).
For Cc1ccc(OC[C@@H]2CCN2C)cc1C(=O)N[C@H](C)c1cc(-c2cnn(C)c2)nc2ccccc12, the viability was 98.6% (African green monkey cells; 7.812 µM).
For CC[C@H](C)[C@H](NC(=O)[C@H](CCCCN)NC(=O)CNC(=O)[C@H](CC(C)C)NC(=O)[C@H](Cc1ccccc1)NC(=O)[C@H](CCCCN)NC(=O)[C@H](CO)NC(=O)[C@H](Cc1ccccc1)NC(=O)[C@H](Cc1c[nH]c2ccccc12)NC(=O)[C@H](CCC(N)=O)NC(=O)[C@@H](NC(=O)[C@H](Cc1ccccc1)NC(=O)CCCCCNC(=O)CN1CCN(CC(=O)O)CCN(CC(=O)O)CCN(CC(=O)O)CC1)C(C)C)C(=O)N[C@@H](CCC(=O)O)C(=O)N1CCC[C@H]1C(=O)N[C@@H](CC(=O)O)C(=O)N[C@H](C(=O)N[C@@H](CO)C(=O)N[C@@H](CCC(N)=O)C(=O)N[C@H](C(=O)N[C@@H](CCC(N)=O)C(=O)N[C@@H](CC(=O)O)C(=O)N1CCC[C@H]1C(=O)N[C@@H](CC(N)=O)C(=O)N[C@@H](CC(=O)O)C(=O)N[C@@H](CCC(N)=O)C(=O)N[C@@H](Cc1ccc(O)cc1)C(=O)N[C@@H](CCC(=O)O)C(=O)N1CCC[C@H]1C(=O)N[C@@H](Cc1ccccc1)C(=O)O)C(C)C)C(C)C [copper-64 labelled], the SUVmean was 0.66 SUV (dynamic PET; mouse both sexes, CT26 tumour, untreated, tumour; intravenous, 100 µCi/mouse, 870 s).
Nc1c2c(nc3sc4c(c13)CCCCC4)CCCC2 has an IC50 of greater than 10.6 µM (HEp-2; cell growth or viability, ATP luminescence; 72 h).
With Cc1ccc(N2CCC3(CC2)CN(C)C3)cc1C(=O)N[C@H](C)c1cc(-c2cnn(C)c2)nc2ccccc12 the viability was 0.714% and 1.43% and 1.79% (Vero E6; 500 µM).
COc1ccc2c3c1O[C@H]1[C@@H](O)C=C[C@H]4[C@@H](C2)N(CCc2ccccc2)CC[C@@]341 has a logD of 2.03 (octanol/phosphate buffer; 1 h, pH 6.89, ionic strength 0.15 M).
CC(=O)NCCCC[C@@H]1NC(=O)[C@H](Cc2c[nH]c3c(C)cccc23)NC(=O)[C@H]([C@@H](C)O)NC(=O)[C@H](CC(N)=O)NC(=O)[C@@H](NC(C)=O)C(C)(C)SSC(C)(C)[C@@H](C(=O)N[C@@H](Cc2ccc(OCCN)cc2)C(=O)N[C@@H](Cc2ccc3ccccc3c2)C(=O)NC2(C(=O)N[C@@H](CCC(=O)O)C(=O)N[C@@H](CC(N)=O)C(=O)N[C@@H](Cc3cccnc3)C(=O)N(C)CC(N)=O)CCOCC2)NC1=O gave an unbound fraction of 64.1 ± 2.1 % unbound (Albumin (ALB, Homo sapiens, UniProt P02768); equilibrium dialysis; purified human albumin; 1 µM).
With Cc1ccc(OCCN(C)C)cc1C(=O)N[C@H](C)c1cc(-c2ccc(C(F)(F)F)s2)nc2ccccc12 the viability was 0.636% and -1.69% (Vero E6; 125 µM).
With O=C1NC2(CC2)COc2ncc(F)cc2[C@H]2COCCN2c2ccn3ncc1c3n2 the serum sodium was 145 ± 1 mmol/L (Sprague-Dawley rat, male, serum; oral, 2.5 mg/kg/day, end of recovery, 4-week subacute toxicity).
